Measurements pooled from the literature.
A part holds a random share of what one study measured. Substitutions count along the parent as printed.

Block 1 — target: CCND1, cyclin fold, Cln2 fusion (human); technique: yeast growth competition, sequencing; sample: yeast; setting: weak parent motif; baseline: not given; reading: higher = stronger binding
Parent: MICAL3 docking peptide (human); LQLRRQLSFSEDS; partner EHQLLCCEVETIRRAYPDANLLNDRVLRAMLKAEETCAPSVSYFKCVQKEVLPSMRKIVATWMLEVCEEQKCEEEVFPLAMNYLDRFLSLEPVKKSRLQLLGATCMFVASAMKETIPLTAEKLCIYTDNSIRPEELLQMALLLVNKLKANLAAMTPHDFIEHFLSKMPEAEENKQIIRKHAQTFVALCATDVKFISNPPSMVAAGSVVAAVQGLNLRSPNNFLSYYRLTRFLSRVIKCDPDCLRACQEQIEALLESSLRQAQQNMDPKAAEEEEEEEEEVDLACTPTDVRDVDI
| Change | normalised enrichment score |
| --- | --- |
| LQLRCQLSFSEDS [R5C] | 0.174 |
| LQLRDQLSFSEDS [R5D] | 0.136 |
| LQLRRQLVFSEDS [S8V] | -0.0627 |
| LQLRRQLAFSEDS [S8A] | -0.269 |
| LQLNRQLSFSEDS [R4N] | 0.356 |
| LQLRRQDSFSEDS [L7D] | 0.0123 |
| LQLRRMLSFSEDS [Q6M] | 0.268 |
| LQLRMQLSFSEDS [R5M] | 0.0562 |
| LQLRFQLSFSEDS [R5F] | -0.367 |
| LQLRRCLSFSEDS [Q6C] | 0.754 |
| LQLRRHLSFSEDS [Q6H] | 0.0836 |
| LQLRRQASFSEDS [L7A] | -0.164 |
| LLLRRQLSFSEDS [Q2L] | 0.55 |
| LQLRRQLLFSEDS [S8L] | 0.019 |
| LQLRRQLSQSEDS [F9Q] | 0.084 |
| LQLRRQLSFSEWS [D12W] | 0.213 |
| LQLQRQLSFSEDS [R4Q] | 0.289 |
| LQLRRQLQFSEDS [S8Q] | -0.00894 |
| LQLLRQLSFSEDS [R4L] | -0.11 |
| LQLRRQLSFSMDS [E11M] | -0.0765 |
| LPLRRQLSFSEDS [Q2P] | 1.36 |
| LGLRRQLSFSEDS [Q2G] | 0.0541 |
| LQLRRQLNFSEDS [S8N] | 0.203 |
| LQLRRQLSFSEFS [D12F] | 0.512 |
| LQLRRQLSFSPDS [E11P] | 0.266 |

Block 2 — technique: RNA Bind-n-Seq; molecule type: RNA; sample: in vitro; tested at: not given; baseline: input RNA pool; reading: higher = stronger binding
Target: RING finger protein unkempt homolog, zinc fingers 1-6, GST-SBP tag (UNK, Homo sapiens, UniProt Q9C0B0, residues 30-357)
Setting: RNA with constant flanks, human and mouse sites, ends assumed
Constant ends, left off below: GGGAGUUCUACAGUCCGACGAUC … CAACAGAGGAUUGAGCAUCA
Residues (chain): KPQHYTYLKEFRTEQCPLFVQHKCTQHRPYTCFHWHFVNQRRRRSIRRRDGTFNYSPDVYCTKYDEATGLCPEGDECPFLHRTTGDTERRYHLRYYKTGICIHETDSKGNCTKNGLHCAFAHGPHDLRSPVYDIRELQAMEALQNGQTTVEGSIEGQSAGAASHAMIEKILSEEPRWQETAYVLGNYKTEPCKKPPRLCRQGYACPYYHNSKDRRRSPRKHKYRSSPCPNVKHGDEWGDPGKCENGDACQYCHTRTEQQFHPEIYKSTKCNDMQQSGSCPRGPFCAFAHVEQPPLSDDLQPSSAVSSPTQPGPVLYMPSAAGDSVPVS
| Strand | bound/input enrichment |
| --- | --- |
| ACGAAAUAUCGUGUCUUGAAGAUUGAUAGAACAGAACCAAAAGAUUUGGUCAUAAUUGAUGACAGGCAUGUCUAUACUCAACAAGAAGUAAGGGAACUUCUUGGCCGCUUGGAUCUUGGA | 0.179 ratio |
| ACAGUUAGCAAGCGAAGUGUUAAAUGGAGAAGAUGCUUGUUUUUAUUAAACAUUUGGAGAUUUAGAUAAUUUACAUUUUAACUGAAUGUCUAAAGUGAUUAUCUUCCCCUCCCUCCCCCA | 0.613 ratio |
| CUCAGCCCAGGGCCCCAAAUCAACGUGCUGGAAGAUCCAGACUACCUAGAUCUCACACAAAUAGAAGCAAGCAAACCUCACAGUACCCAAUUUUUGCCACCAGUUGAGAUGAUUGGUCCU | 0.905 ratio |
| CUUGGACAGGAGAGGGCACUGGAACAGAUUUUGGAAUAUGAACUACUACUUAUACAACAACUUAAUUUUCACCUUAUUGUCCACAAUCCAUACAGACCAUUUGAAGGCUUCCUCAUCGAU | 1.48 ratio |
| CGUUCAAUGUGUAUGUAACUGAGUGCUGGAAUCCCAGAAGUGCAUGUUUGUACUCGUGUCCGCCUGAAGCUUGGGGUAAAUGGAAUCCUCCCUGAGGUUGUUUGGUGAGGCCUUGCGCUU | 0.185 ratio |
| UUUCAUUGGCAAGCCACAAUUAUGGGACCUAAUGACAGCCCAUAUCAAGGUGGUGUAUUCUUUUUGACAAUUCAUUUUCCUACAGACUACCCCUUCAAACCACCUAAGGUUGCAUUUACA | 0.189 ratio |
| UAUUUGUGUUGGGAAGAAUGUUGUGGGGGUGGGGGGAAUUGAGUUGGGGGGUUAUUUUCUAAUUUUUUUUGUACAUUUGGAACAGUGACAAUAAAUGUGCCCCCUUUAUACUGUCGUUUU | 3.32 ratio |
| GAAAAUCCAUAUGACCUUGAUGCUUGGAGCAUUCUCAUUCGAGAGGCACAGAAUCAACCUAUAGACAAAGCACGGAAGACUUACGAACGCCUUGUUGCCCAGUUCCCCAGUUCUGGCAGA | 0.148 ratio |
| AGUAAGACCAUGAAUUAUGGCAUUUCUUAAAUGAAGCGUUCAAGAAGUGAGAGAAUGUCAUAGAAAAUAAAUGAUUUUUAAGUUAUGUCUAUUAAUCUGACUGUAGAUAUAUAUAUUUAC | 0.703 ratio |
| AAGUGUGAAUGCAGAAGCAAAUAUUGUCUGCCCUGUUAAACUUGGUGCCCAUUAACAGUGUUUACACUGUUCAUCGUGCCUGUUAAUGUAGUUUUAGUUACUGGAGCUUUUUUAAGACUA | 0.387 ratio |
| GGGAUCACUCCGUCGCACCCACCAUGAUGGAAGACGACGGACAGCCCCGGACUCUAUACGUAGGUAACCUCUCCAGAGAUGUGACAGAAGUCCUUAUUCUUCAGUUAUUCAGUCAGAUCG | 0.0549 ratio |

Block 3 — technique: RNA Bind-n-Seq; molecule type: RNA; sample: in vitro; tested at: 365 nM; baseline: no-protein control; reading: higher = stronger binding
Target: RNA binding protein fox-1 homolog 2, RRM domain, GST-SBP tag (RBFOX2, Homo sapiens, UniProt O43251-10, residues 100-194)
Setting: natural RNA segment, single round, ends assumed
Constant ends, left off below: GGGAGUUCUACAGUCCGACGAUC … UGGAAUUCUCGGGUGCCAA
Construct (chain): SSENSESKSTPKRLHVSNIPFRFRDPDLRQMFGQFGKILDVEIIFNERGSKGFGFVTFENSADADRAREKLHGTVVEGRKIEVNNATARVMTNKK
| Strand | RBNS enrichment (R) |
| --- | --- |
| CUGUUGUUUUAGAACUUUUUUAAAAAAACAGACCUCGUUUUAGAUUUAUAGCAUUGACUUUUACACACAUUCACACAAGAAAAAAAUCCUUUCAAAAUUCUUAAAUCUUC | 0.795 |
| UCAGAGCUCCCAAGCCUUCCCCCACCACCUCACUCAAGUGCCCCUGAAAUCCCUGCCAGACGGCUCAGCCUGGUCUGCGGUAAGGCAGGGAGGCUGGAACCAUUUCUGGG | 0.559 |
| CCACUUUGGUGGCUGUUGUUGCAGAAGACUAAACUGCUUUGGACUAUUUAACGAUUGCCUGACAGUCGAGUGUUUCCAAUGUGGUCGUCCAGUUUCUAUGGCCUUGCUGU | 0.181 |
| AUCAAAUAUCCCUAGGUCAUCUGCCACCCACUUUCCAAGACCUUUCUCCUACUCAACCAGGAAGUCAUGGUUUCUGCAGUCCAGAGCCAUGGCAACUGAGAUUCUAAGCU | 0.239 |
| UCAGUAAUUUGUUGAAGAGUUAACAAGAAAAGGUCUUUCUAGAUUGUGUCUAAGAUGAAAUAAAAUGUAACUUUUGCUGCAGUGGUAUGUUUCUUUUGGAGUACAACAUG | 0.417 |
| UCCAAAGAAUUCUGUAUAAACAUAUGCCAAUUCCCUAUGAUGGUCUAGAGUUAGGAAUGAGUGUUUAUGGUGUUGCUUAUAGAACAACUCAGGUAAUCUCCAUUUCUGGU | 0.509 |
| AUAACCGAGUUUGCUAAAUUGAGAGGGGCUAUUGGGCCCUAGAGGACACUAGGAGACUGGUUAGGACAAAAAGACCUUCUCCCUAGCCCUUCUACCCCACCUGACCUCUG | 0.648 |
| CAUCCAUCAAGGAUUUCCAUAGGGGUGACUGGUGCCCACCCAAGACUGCACCAGUGCCUGCUCAUUGAGGAGAGUAACUGCUGGCCAGGCAGAAAGAAUAUGGGCUCUGC | 0.469 |
| UUGUUGUCUUGUUGUAUAAGAAAUCUAGGUAGGUGCUUUCAACUAGAGUGUUGACCUUGUUAAGACGGACGUAGCUGCACGGUAUUCUCAAUACUGAGAUUGCAAAACUG | 1.23 |
| CUGGUCUGUGUCCUUUUGCCUUAGUCCAUGCAUACUCAUUAAGGAAAAAAAGUACCAUUGUGCUAAACGCUACUGAGACUAACCAGGAAACCCUAACGAUGAAGAUGGUC | 0.357 |
| UUCAAGAUGUUAUAUUAAAGAAAAACUUUAAAAAUUAUUAUAUAUUUAUAGCAAAGUUAUCUUAAAUAUGAAUUCUGUUGUAAUUUAAUGACUUUUGAAUUACAGAGAUA | 1.08 |
| AAGAAAAGGUUUUUCACACACUCCUUGCUUUCUGCUAAGAUAAGAAAGGCGUCACUCUGCCAGAGUGUGACUUUUUACAGAUUAAAUAAAGCUGUAUAUGUCUCAUUGUU | 0.242 |

Block 4 — technique: DHFR PCA, deep sequencing; sample: yeast; with: (+)-ABA 0.032 µM; baseline: wild-type fitted maximum; reading: higher = stronger binding
Target: ABI1, truncated, D143A, DHFR fusion (Arabidopsis thaliana)
Setting: methotrexate growth selection, single substitutions
Parent: PYL1, truncated, DHFR fusion (Arabidopsis thaliana); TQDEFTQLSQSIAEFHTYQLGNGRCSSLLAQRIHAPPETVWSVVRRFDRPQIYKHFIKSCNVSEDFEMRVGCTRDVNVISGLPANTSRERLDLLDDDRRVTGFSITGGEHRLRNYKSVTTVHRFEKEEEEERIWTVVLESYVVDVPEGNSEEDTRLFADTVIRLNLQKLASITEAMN
| Change | relative binding score [%] |
| --- | --- |
| S171Q | 38.7 |
| V76R | -1.61 |
| N114G | 7.68 |
| V161H | 39.6 |
| V118F | -2.42 |
| E109R | 1.12 |
| R32V | 42.5 |
| I105K | 1.1 |
| L94D | 3.09 |
| I12L | 1.91 |
| A158R | 2.15 |
| R98V | 2.58 |
| A30D | 2.33 |
| T73N | -0.514 |
| T106L | 58.8 |
| Q51Y | -12 |
| K58R | 18.9 |

Block 5 — target: CEBPA, bZIP domain (human); technique: DHFR protein complementation; sample: yeast; baseline: wild-type JUN-FOS pair; reading: higher = stronger binding
Setting: single substitutions, most at no-binding floor
Parent: JUN, bZIP domain (human); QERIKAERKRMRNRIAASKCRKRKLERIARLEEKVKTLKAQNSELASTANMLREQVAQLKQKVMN; partner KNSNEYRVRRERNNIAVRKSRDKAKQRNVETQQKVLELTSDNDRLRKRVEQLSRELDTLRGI
| Change | binding fitness |
| --- | --- |
| A29T | -1.42 natural log |
| V35E | -1.51 natural log |
| Q41C | -1.44 natural log |
| E33W | -1.38 natural log |
| R30I | -1.39 natural log |
| M51E | -1.5 natural log |
| Q41D | -1.45 natural log |
| K36Q | -1.5 natural log |
| V56A | -1.45 natural log |
| L52P | -1.46 natural log |
| L31E | -1.44 natural log |
| K34T | -1.36 natural log |
| L38E | -1.54 natural log |
| A49N | -1.35 natural log |
| L45T | -1.42 natural log |
| I28L | -1.42 natural log |
| A49Y | -1.43 natural log |
| N42P | -1.5 natural log |
| R30L | -1.39 natural log |
| L52C | -1.34 natural log |
| Q41I | -1.35 natural log |
| A46V | -1.37 natural log |

Repeated from above (block 5):
| Change | binding fitness |
| --- | --- |
| A46V | -1.37 natural log |
| L52P | -1.46 natural log |
| E33W | -1.38 natural log |
| V56A | -1.45 natural log |
| Q41I | -1.35 natural log |
| L31E | -1.44 natural log |
| R30I | -1.39 natural log |
| N42P | -1.5 natural log |
| L52C | -1.34 natural log |
| I28L | -1.42 natural log |
